Measurements of several laboratories.
Parts stem from different laboratories: compare values within a part only.
Sequence of UniProt Q9H0K1 (whole entry, looked up): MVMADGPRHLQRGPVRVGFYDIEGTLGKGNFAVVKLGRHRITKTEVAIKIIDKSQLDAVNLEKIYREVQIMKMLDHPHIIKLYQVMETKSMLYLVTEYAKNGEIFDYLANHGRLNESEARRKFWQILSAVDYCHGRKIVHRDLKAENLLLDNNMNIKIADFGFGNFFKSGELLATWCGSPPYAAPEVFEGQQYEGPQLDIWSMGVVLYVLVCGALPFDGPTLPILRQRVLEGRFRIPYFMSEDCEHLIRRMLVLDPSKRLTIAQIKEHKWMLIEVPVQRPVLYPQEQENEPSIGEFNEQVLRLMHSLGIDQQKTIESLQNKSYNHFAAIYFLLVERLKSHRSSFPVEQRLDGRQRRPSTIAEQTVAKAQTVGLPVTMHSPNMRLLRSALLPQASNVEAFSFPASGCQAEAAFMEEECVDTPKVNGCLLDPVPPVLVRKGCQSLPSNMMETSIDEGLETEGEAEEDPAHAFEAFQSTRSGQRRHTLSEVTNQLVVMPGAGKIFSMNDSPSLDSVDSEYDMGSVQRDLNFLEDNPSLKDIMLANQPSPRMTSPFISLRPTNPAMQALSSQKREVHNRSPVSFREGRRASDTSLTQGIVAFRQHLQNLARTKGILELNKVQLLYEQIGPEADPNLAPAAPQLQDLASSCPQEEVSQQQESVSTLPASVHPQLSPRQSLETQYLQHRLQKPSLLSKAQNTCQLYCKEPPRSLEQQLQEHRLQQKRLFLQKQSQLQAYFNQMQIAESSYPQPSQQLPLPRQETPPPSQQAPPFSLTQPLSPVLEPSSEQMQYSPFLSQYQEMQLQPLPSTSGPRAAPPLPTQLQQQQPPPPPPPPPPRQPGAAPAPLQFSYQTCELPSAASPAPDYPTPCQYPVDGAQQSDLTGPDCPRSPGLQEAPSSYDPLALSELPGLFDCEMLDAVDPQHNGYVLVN
Sequence of UniProt P23458 (whole entry, looked up): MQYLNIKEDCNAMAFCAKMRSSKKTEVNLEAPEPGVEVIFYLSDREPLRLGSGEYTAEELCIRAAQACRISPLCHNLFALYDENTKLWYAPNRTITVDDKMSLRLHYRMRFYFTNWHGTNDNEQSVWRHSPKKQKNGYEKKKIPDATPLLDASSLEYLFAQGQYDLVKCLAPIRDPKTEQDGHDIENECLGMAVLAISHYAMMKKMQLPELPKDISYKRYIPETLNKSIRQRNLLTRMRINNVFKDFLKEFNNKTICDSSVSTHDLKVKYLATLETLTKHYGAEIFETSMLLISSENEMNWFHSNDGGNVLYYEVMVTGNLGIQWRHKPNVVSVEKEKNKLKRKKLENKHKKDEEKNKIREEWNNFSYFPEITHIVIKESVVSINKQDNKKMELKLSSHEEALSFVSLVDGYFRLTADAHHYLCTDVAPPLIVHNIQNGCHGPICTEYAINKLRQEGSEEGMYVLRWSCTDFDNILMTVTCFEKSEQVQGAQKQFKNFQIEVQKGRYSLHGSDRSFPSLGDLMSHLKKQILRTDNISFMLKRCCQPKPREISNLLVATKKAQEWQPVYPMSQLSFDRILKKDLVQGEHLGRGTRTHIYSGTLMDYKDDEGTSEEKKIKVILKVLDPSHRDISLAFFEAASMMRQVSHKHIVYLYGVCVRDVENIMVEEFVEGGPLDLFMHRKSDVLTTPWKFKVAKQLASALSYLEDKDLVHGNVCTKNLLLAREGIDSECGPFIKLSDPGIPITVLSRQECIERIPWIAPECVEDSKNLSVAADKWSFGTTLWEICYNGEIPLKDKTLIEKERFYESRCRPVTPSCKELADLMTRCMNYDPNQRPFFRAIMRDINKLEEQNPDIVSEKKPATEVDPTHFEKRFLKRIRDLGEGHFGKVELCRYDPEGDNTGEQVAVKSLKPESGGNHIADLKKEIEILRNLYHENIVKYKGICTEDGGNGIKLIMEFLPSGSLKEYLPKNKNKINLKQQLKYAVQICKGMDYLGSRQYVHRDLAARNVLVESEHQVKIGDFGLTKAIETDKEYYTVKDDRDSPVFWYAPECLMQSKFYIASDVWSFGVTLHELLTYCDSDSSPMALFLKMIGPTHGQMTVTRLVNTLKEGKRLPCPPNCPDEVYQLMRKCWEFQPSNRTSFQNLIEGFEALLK
Sequence of UniProt P29317 (whole entry, looked up): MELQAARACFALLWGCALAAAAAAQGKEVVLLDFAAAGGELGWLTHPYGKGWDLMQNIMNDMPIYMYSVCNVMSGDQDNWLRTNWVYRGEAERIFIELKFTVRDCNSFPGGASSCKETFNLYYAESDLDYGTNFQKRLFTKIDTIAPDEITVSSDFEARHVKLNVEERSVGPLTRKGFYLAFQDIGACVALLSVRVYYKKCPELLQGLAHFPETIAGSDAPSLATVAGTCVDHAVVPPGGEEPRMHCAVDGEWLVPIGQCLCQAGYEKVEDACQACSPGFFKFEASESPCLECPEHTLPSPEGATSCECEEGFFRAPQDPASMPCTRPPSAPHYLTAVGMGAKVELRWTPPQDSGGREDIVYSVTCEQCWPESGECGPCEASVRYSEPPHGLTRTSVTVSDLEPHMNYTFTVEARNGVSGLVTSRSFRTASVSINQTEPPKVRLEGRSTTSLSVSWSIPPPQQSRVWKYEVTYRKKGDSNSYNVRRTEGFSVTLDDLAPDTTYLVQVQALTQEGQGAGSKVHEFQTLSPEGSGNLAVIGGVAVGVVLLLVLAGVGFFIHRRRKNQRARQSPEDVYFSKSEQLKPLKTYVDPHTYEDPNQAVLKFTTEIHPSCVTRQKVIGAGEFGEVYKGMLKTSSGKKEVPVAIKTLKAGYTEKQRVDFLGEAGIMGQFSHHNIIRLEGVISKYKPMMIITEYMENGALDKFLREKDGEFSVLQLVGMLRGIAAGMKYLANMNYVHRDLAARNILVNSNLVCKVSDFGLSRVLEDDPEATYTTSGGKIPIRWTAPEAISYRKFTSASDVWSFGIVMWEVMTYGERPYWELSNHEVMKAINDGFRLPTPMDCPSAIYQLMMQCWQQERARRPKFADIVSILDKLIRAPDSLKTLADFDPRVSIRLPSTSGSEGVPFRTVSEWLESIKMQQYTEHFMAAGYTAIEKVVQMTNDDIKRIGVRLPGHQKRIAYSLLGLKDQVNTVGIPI
Sequence of UniProt Q13153 (whole entry, looked up): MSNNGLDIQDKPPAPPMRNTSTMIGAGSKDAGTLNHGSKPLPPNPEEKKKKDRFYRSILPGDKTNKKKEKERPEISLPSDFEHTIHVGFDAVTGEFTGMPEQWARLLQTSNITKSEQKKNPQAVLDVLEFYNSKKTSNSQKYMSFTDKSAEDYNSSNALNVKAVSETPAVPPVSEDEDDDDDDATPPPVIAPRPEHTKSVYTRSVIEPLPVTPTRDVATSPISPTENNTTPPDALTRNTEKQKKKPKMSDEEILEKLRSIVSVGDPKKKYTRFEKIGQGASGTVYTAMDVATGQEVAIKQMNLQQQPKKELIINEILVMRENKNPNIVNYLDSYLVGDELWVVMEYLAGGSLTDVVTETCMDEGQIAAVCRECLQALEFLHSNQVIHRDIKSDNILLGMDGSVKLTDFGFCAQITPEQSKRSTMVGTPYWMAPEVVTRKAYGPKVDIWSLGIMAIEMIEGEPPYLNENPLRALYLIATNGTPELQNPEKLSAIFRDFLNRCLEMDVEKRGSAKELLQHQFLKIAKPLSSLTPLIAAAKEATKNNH
Sequence of UniProt P48730 (whole entry, looked up): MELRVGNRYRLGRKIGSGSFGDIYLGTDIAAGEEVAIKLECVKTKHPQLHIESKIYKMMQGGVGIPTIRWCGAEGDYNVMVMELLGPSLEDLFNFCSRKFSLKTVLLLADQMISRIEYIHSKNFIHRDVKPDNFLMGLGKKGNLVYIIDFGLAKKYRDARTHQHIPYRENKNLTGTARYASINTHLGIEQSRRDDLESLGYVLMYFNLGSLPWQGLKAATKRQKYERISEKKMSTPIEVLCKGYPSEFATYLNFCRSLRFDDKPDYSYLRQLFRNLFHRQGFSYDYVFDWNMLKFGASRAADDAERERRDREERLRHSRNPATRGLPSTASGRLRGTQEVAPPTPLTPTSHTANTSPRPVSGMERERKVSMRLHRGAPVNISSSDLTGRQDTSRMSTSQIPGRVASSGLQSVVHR

Series 1
Compound: CN(c1ccnc(CNc2nc(Nc3ccc4c(c3)CC(=O)N4)ncc2C(F)(F)F)n1)S(C)(=O)=O
Method: competition with immobilised ligand
Concentration: 1 µM
target	test	remaining binding [%]
Serine/threonine-protein kinase D3 (PRKD3, Homo sapiens, UniProt O94806)	cell-free assay	100
Bone morphogenetic protein receptor type-2 (BMPR2, Homo sapiens, UniProt Q13873)	cell-free assay	60
Casein kinase I isoform alpha-like (CSNK1A1L, Homo sapiens, UniProt Q8N752)	cell-free assay	81
LIM domain kinase 2 (LIMK2, Homo sapiens, UniProt P53671)	cell-free assay	94
Ribosomal protein S6 kinase alpha-2, N-terminal kinase domain (RPS6KA2, Homo sapiens, UniProt Q15349)	cell-free assay	57
BMP-2-inducible protein kinase (BMP2K, Homo sapiens, UniProt Q9NSY1)	cell-free assay	2.3
Mitogen-activated protein kinase kinase kinase 13 (MAP3K13, Homo sapiens, UniProt O43283)	binding	0
Hepatocyte growth factor receptor (MET, Homo sapiens, UniProt P08581, M1250T)	cell-free assay	6.8
Dual specificity tyrosine-phosphorylation-regulated kinase 1B (DYRK1B, Homo sapiens, UniProt Q9Y463)	cell-free assay	31
Cyclin-dependent kinase 17 (CDK17, Homo sapiens, UniProt Q00537)	cell-free assay	85
Dual specificity mitogen-activated protein kinase kinase 1 (MAP2K1, Homo sapiens, UniProt Q02750)	cell-free assay	85
Mitogen-activated protein kinase kinase kinase 6 (MAP3K6, Homo sapiens, UniProt O95382)	cell-free assay	73
Serine/threonine-protein kinase SIK2 (SIK2, Homo sapiens, UniProt Q9H0K1)	cell-free assay	41
Serine/threonine-protein kinase Chk2 (CHEK2, Homo sapiens, UniProt O96017)	binding	0
Epidermal growth factor receptor (EGFR, Homo sapiens, UniProt P00533, T790M)	cell-free assay	100
Ephrin type-A receptor 7 (EPHA7, Homo sapiens, UniProt Q15375)	cell-free assay	87
Phosphatidylinositol 4,5-bisphosphate 3-kinase catalytic subunit alpha isoform (PIK3CA, Homo sapiens, UniProt P42336, E542K)	cell-free assay	100

Series 2
Target: Homeobox protein Hox-B13, full length (HOXB13, Homo sapiens, UniProt Q92826, residues 1-284)
Sequence of UniProt Q92826 (whole entry, looked up): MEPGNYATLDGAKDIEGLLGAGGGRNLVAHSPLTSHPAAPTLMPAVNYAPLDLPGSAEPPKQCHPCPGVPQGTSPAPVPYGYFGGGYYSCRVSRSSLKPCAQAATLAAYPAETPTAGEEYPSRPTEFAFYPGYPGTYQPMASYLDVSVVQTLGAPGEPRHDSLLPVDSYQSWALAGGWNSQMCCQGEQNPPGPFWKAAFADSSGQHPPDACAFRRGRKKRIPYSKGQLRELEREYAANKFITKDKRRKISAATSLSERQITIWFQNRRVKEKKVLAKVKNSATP
Method: protein-binding microarray
Molecule type: hairpin DNA
Matrix: in vitro
Concentration: not given
Setting: whole hairpin DNA, median over replicate spots
Reference: not given
Reading: higher = stronger binding
Sequence	median fluorescence [a.u.]
GAGGCCGTCGTATTGGGGCCTCCTGGCCCCAATACGACGGCCTCACACTC	4060
GAGGCCGTTTTATTGGCGCCTCCTGGCGCCAATAAAACGGCCTCACACTC	5030
GAGGCCGCTTTATTGGGGCCTCCTGGCCCCAATAAAGCGGCCTCACACTC	4550
GAGGCCGTTTCGCGAGGGCCTCCTGGCCCTCGCGAAACGGCCTCACACTC	4070
GAGGCCGTTTTGTTGGGGCCTCCTGGCCCCAACAAAACGGCCTCACACTC	4150
GAGGCCGTTTTACGAGGGCCTCCTGGCCCTCGTAAAACGGCCTCACACTC (5mC at 13 31)	5560
GAGGCCGTTTTCGTGGGGCCTCCTGGCCCCACGAAAACGGCCTCACACTC (5mC at 32)	3990
GAGGCCCGTTTATTGGGGCCTCCTGGCCCCAATAAACGGGCCTCACACTC (5mC at 37)	4570

Series 3
Target: Prothrombin, mature alpha-thrombin (F2, Homo sapiens, UniProt P00734)
Method: aptamer microarray, sandwich
Molecule type: DNA with 2'F-ANA
Matrix: in vitro
Concentration: 200 nM
Setting: whole 15-mer aptamer, many near background
With: Cy3 exosite-II aptamer, 400 nM
Reading: higher = stronger binding
Sequence: GGTTGGTGTGGTTGG
Modification	mean fluorescence intensity [a.u.]
2'F-ANA at 3 7 8	1460
2'F-ANA at 3 6 7 8 11 12 13	1300
2'F-ANA at 1 4 6 7 8 15	154
2'F-ANA at 2 5 6 8 10 12 13 14 15	47.9
2'F-ANA at 4 5 8 10 11 12 13 14	45.9
2'F-ANA at 1 2 4 8 9 10 12 13 15	54.3
2'F-ANA at 3 4 5 6 9 11 13 14	52.2
2'F-ANA at 1 2 3 8 10 13 14 15	50.5

Series 4
Structure (SMILES): NC(=O)c1ccc(N(C(N)=O)c2c(F)cccc2F)nc1-c1ccc(F)cc1F
Observed: enzyme activity
Action: inhibitor
Concentration: 0.5 µM
Reference: control
target	remaining activity [%]
Serine/threonine-protein kinase PAK 1 (PAK1, Homo sapiens, UniProt Q13153)	110
Tyrosine-protein kinase Tec (TEC, Homo sapiens, UniProt P42680)	114
Ribosomal protein S6 kinase alpha-3 (RPS6KA3, Homo sapiens, UniProt P51812)	99.8
Muscle, skeletal receptor tyrosine-protein kinase (MUSK, Homo sapiens, UniProt O15146)	102
Mitogen-activated protein kinase kinase kinase 20 (MAP3K20, Homo sapiens, UniProt Q9NYL2)	97.9
Ephrin type-A receptor 2 (EPHA2, Homo sapiens, UniProt P29317)	89
Serine/threonine-protein kinase PAK 6 (PAK6, Homo sapiens, UniProt Q9NQU5)	103
SRSF protein kinase 1 (SRPK1, Homo sapiens, UniProt Q96SB4)	99
Serine/threonine-protein kinase SIK2 (SIK2, Homo sapiens, UniProt Q9H0K1)	95.1
Tyrosine-protein kinase JAK1 (JAK1, Homo sapiens, UniProt P23458)	98.8
Protein kinase C zeta type (PRKCZ, Homo sapiens, UniProt Q05513)	89.9
Vascular endothelial growth factor receptor 1 (FLT1, Homo sapiens, UniProt P17948)	102
Ephrin type-A receptor 6 (EPHA6, Homo sapiens, UniProt Q9UF33)	95
Calcium/calmodulin-dependent protein kinase type 1 (CAMK1, Homo sapiens, UniProt Q14012)	98.1
Cyclin-dependent kinase 2, with cyclin E (CDK2, Homo sapiens, UniProt P24941)	93.1
Casein kinase I isoform epsilon (CSNK1E, Homo sapiens, UniProt P49674)	98.2
Dual specificity protein kinase CLK2 (CLK2, Homo sapiens, UniProt P49760)	86.9
Calcium/calmodulin-dependent protein kinase kinase 1 (CAMKK1, Homo sapiens, UniProt Q8N5S9)	98.9
Casein kinase I isoform delta (CSNK1D, Homo sapiens, UniProt P48730)	89.8
Protein kinase C theta type (PRKCQ, Homo sapiens, UniProt Q04759)	85.1
Serine/threonine-protein kinase Sgk2 (SGK2, Homo sapiens, UniProt Q9HBY8)	107
Tyrosine-protein kinase receptor TYRO3 (TYRO3, Homo sapiens, UniProt Q06418)	101
Insulin-like growth factor 1 receptor (IGF1R, Homo sapiens, UniProt P08069)	92.3
